{"data": "Measurements pooled from the literature", "note": "Compare with care: the assays were run in different laboratories. Several values in a cell are separate wells, animals, samples, runs or records. ± gives the spread as reported."}
{"SMILES": "Cc1[nH]nc2c1N=C(c1ccccc1Cl)c1cnc(N3CCOCC3)cc1N2", "test system": "mouse sample E TNBC PDX", "conditions": "oral, 15 mg/kg, 120 h, 5 days per week", "quantity": "tumour growth inhibition", "value": "96%"}
{"SMILES": "COc1cc2nc(N3CCN(C(=O)C4CC5(CC5)CO4)CC3)nc(N)c2cc1OC (centres unmarked)", "test system": "male SHR rat", "conditions": "oral, 3 mg/kg, 120 min", "scale": "baseline: baseline", "quantity": "diastolic blood pressure decrease", "value": "28 mmHg"}
{"SMILES": "CC(C)C[C@H](NC(=O)[C@H](Cc1ccccc1)NC(=O)[C@H](C)NC(=O)[C@@H](CS)NC(=O)CNC(=O)[C@H](N)CO)C(=O)N[C@@H](CO)C(=O)N[C@H](C(=O)N[C@@H](CCCCN)C(=O)N[C@@H](CCCCN)C(=O)N[C@@H](CCC(N)=O)C(=O)N[C@@H](Cc1ccccc1)C(=O)N[C@@H](CCC(=O)O)C(=O)N[C@@H](CCC(=O)O)C(=O)N[C@@H](CC(C)C)C(=O)N[C@H](C(=O)N[C@@H](CC(C)C)C(=O)NCC(=O)N[C@@H](CCC(=O)O)C(=O)N[C@@H](Cc1ccccc1)C(=O)N[C@@H](CC(C)C)C(=O)N[C@H](CCCCN)C(=O)N[C@H](CC(C)C)C(=O)N[C@H](CC(=O)O)C(=O)N[C@@H](CCCNC(=N)N)C(=O)N[C@H](CCCNC(=N)N)C(=O)N[C@@H](CCCNC(=N)N)C(=O)N[C@@H](CCCCN)C(=O)O)[C@@H](C)O)C(C)C", "assay": "immunofluorescence, immunoblot", "test system": "mouse A549 xenograft, tumour", "conditions": "intravenous, dose not given", "quantity": "p53 level", "value": "decreased"}
{"SMILES": "COc1cc(/C=C2\\CN(C(C)C)C/C(=C\\c3cc(Cl)c(O)c(OC)c3)C2=O)cc(Cl)c1O", "assay": "ABTS scavenging", "conditions": "20 min", "quantity": "IC50", "value": "369 µg/mL"}
{"SMILES": "OCC1OC(n2cnc3c(NCc4ccc(Br)s4)ncnc32)C(O)C1O (centres unmarked)", "assay": "FDG-PET", "test system": "wild-type mouse", "conditions": "oral, 3 mg/kg, 2 h", "quantity": "cortex and hippocampus glucose metabolism", "value": "increased"}
{"SMILES": "COc1cc(O)ccc1CCC(c1ccc(O)cc1)c1cc2c(c(C)c1O)OC(c1ccc(O)cc1)CC2 (mixture of isomers)", "assay": "item: 4-HDHA", "test system": "human whole blood", "conditions": "30 µM, with: Escherichia coli", "quantity": "amount", "value": "64 ± 35 pg/mL blood"}
{"SMILES": "COC1OC(C)C(O)C(OC2OC(C)C(O)C(OC3OC(C)C(O)C(OC4OC(C)C(O)C(OC5OC(C)C(O)C(OC6OC(C)C(O)C(OC7OC(C)C(O)C(OS(=O)(=O)O)C7OS(=O)(=O)O)C6OS(=O)(=O)O)C5OS(=O)(=O)O)C4OS(=O)(=O)O)C3OS(=O)(=O)O)C2OS(=O)(=O)O)C1OS(=O)(=O)O (centres unmarked)", "test system": "human plasma", "conditions": "128 µg/mL", "quantity": "prothrombin time", "value": "14.9 ± 0.2 s"}
{"SMILES": "COc1c(Cl)cccc1Nc1c(-c2ccncc2C#C[C@@]2(C)CCCN2C(=O)/C=C/CN(C)C)[nH]c2c1C(=O)NCC2", "test system": "CUTO14, EGFR ASV, female NSG mouse, CUTO14 xenograft", "conditions": "50 mg/kg once daily, 21 days", "quantity": "tumour growth inhibition", "value": "190%"}
{"SMILES": "Oc1cccc(C2NCCc3cc(O)c(O)cc32)c1 (centres unmarked)", "assay": "ABTS scavenging", "conditions": "10 min, dark", "quantity": "IC50", "value": "6.9 µM"}
{"SMILES": "COC1OC(C)C(OC2OC(C)C(OS(=O)(=O)O)C(OC3OC(C)C(OC4OC(C)C(OS(=O)(=O)O)C(OS(=O)(=O)O)C4O)C(OS(=O)(=O)O)C3O)C2O)C(OS(=O)(=O)O)C1O (centres unmarked)", "test system": "human plasma", "conditions": "128 µg/mL", "quantity": "prothrombin time", "value": "15.1 ± 0.2 s"}
{"SMILES": "Cc1cnc2nc1Nc1cccc(c1)COC/C=C/COCc1cc(ccc1OCCN1CCOCC1)N2", "test system": "BALB/c mice rhEPO-induced polycythemia", "conditions": "75 mg/kg", "quantity": "hematocrit", "value": "49.4% and 51.4% and 51% and 49.6% and 51.1% and 45.9%"}
{"SMILES": "CN1CCC[C@]1(C)/C=C/S(=O)(=O)NC(=O)Nc1c2c(cc3c1CCC3)CCC2", "test system": "human, whole blood ex vivo", "conditions": "100 mg twice daily, day 14, 36 h, multiple ascending dose, with: LPS and ATP", "quantity": "IL-18 inhibition", "value": "103%"}
{"SMILES": "COC1OC(C)C(OS(=O)(=O)O)C(OC2OC(C)C(OS(=O)(=O)O)C(OC3OC(C)C(OS(=O)(=O)O)C(OC4OC(C)C(OS(=O)(=O)O)C(OC5OC(C)C(OS(=O)(=O)O)C(OS(=O)(=O)O)C5O)C4O)C3O)C2O)C1O (centres unmarked)", "test system": "human plasma", "conditions": "128 µg/mL", "quantity": "prothrombin time", "value": "14.5 ± 0.3 s"}
{"SMILES": "CC(C)(C)NCC(SS(=O)(=O)O)c1ccccc1 (centres unmarked)", "test system": "Swiss Webster mice, Schistosoma mansoni-infected", "conditions": "600 mg/kg single dose on day 1 post-infection, perfusion day 44 post-infection", "quantity": "spleen weight", "value": "0.41 g"}
{"SMILES": "COC1OC(C)C(O)C(OC2OC(C)C(O)C(OC3OC(C)C(O)C(OS(=O)(=O)O)C3OS(=O)(=O)O)C2OS(=O)(=O)O)C1OS(=O)(=O)O (centres unmarked)", "test system": "human plasma", "conditions": "128 µg/mL", "quantity": "prothrombin time", "value": "15.1 ± 0.4 s"}
{"SMILES": "COC1CN([C@H]2CC[C@H]([C@@]3(C)Oc4c(Cl)cc(C(=O)NCc5c(SC)cc(C)[nH]c5=O)c(C)c4O3)CC2)C1", "assay": "RNA-seq, item: DLC1 mouse homolog", "test system": "mouse, HT-1376 xenograft, whole blood", "conditions": "dose not given", "scale": "baseline: vehicle", "quantity": "log2 fold change", "value": 0.995}
{"SMILES": "COC1OC(C)C(OC2OC(C)C(OS(=O)(=O)O)C(OC3OC(C)C(OC4OC(C)C(OS(=O)(=O)O)C(OC5OC(C)C(OC6OC(C)C(OS(=O)(=O)O)C(OS(=O)(=O)O)C6OS(=O)(=O)O)C(OS(=O)(=O)O)C5OS(=O)(=O)O)C4OS(=O)(=O)O)C(OS(=O)(=O)O)C3OS(=O)(=O)O)C2OS(=O)(=O)O)C(OS(=O)(=O)O)C1OS(=O)(=O)O (centres unmarked)", "test system": "human plasma", "conditions": "128 µg/mL", "quantity": "prothrombin time", "value": "15.5 ± 0.5 s"}
{"SMILES": "NC[C@@H](C(=O)Nc1ccc(-c2cn[nH]c2)cc1)c1ccccc1", "assay": "tonometry", "test system": "NZW rabbit, magnetic bead-induced ocular hypertension", "conditions": "ocular, 0.1%, 26 h", "quantity": "IOP", "value": "31.9 mmHg"}
{"SMILES": "CC(C)C[C@H](NC(=O)CNC(=O)[C@H](CCC(N)=O)NC(=O)[C@H](CC(C)C)NC(=O)[C@H](CC(C)C)NC(=O)[C@H](CCCNC(=N)N)NC(=O)[C@H](CCC(N)=O)NC(=O)[C@H](CC(C)C)NC(=O)[C@H](CCCNC(=N)N)NC(=O)[C@H](C)NC(=O)CNC(=O)[C@H](CCC(=O)O)NC(=O)[C@H](CCCNC(=N)N)NC(=O)[C@H](CC(C)C)NC(=O)[C@H](CCCNC(=N)N)NC(=O)[C@H](CO)NC(=O)[C@H](CC(C)C)NC(=O)[C@H](CCC(=O)O)NC(=O)[C@H](CO)NC(=O)[C@@H](NC(=O)[C@H](Cc1ccccc1)NC(=O)[C@@H](NC(=O)CNC(=O)[C@H](CC(=O)O)NC(=O)C(C)(C)NC(=O)[C@@H](N)Cc1c[nH]cn1)[C@@H](C)O)[C@@H](C)O)C(=O)N[C@@H](CC(C)C)C(=O)N[C@@H](CCC(N)=O)C(=O)NCC(=O)N[C@@H](CC(C)C)C(=O)N[C@H](C(=O)NCC(=O)N[C@@H](CCCCNC(=O)COCCOCCNC(=O)COCCOCCNC(=O)CC[C@H](NC(=O)CCCCCCCCCCCCCCCCC(=O)O)C(=O)O)C(N)=O)C(C)C", "test system": "DIO C57BL/6J mice", "conditions": "sc, 300 nmol/kg twice daily, end of 8 days, not significant", "quantity": "liver triglyceride reduction", "value": "24%"}
{"SMILES": "COC(=O)C1CN1S(=O)(=O)c1ccc2cc(C)ccc2c1 (centres unmarked)", "test system": "mouse, Lewis lung carcinoma", "conditions": "ip, 100 mg/kg, 384 h", "quantity": "tumour growth inhibition", "value": "58%"}
{"SMILES": "COC1OC(C)C(OC2OC(C)C(O)C(OC3OC(C)C(OC4OC(C)C(O)C(OC5OC(C)C(OC6OC(C)C(O)C(OC7OC(C)C(OC8OC(C)C(O)C(OC9OC(C)C(OC%10OC(C)C(O)C(OS(=O)(=O)O)C%10OS(=O)(=O)O)C(OS(=O)(=O)O)C9OS(=O)(=O)O)C8OS(=O)(=O)O)C(OS(=O)(=O)O)C7OS(=O)(=O)O)C6OS(=O)(=O)O)C(OS(=O)(=O)O)C5OS(=O)(=O)O)C4OS(=O)(=O)O)C(OS(=O)(=O)O)C3OS(=O)(=O)O)C2OS(=O)(=O)O)C(OS(=O)(=O)O)C1OS(=O)(=O)O (centres unmarked)", "test system": "human plasma", "conditions": "128 µg/mL", "quantity": "prothrombin time", "value": "14.8 ± 0.1 s"}
{"SMILES": "CN1CCCNC(=O)c2cccc(c2)C(=O)NCCCN(C)CCCNc2cccc3c2C(=O)c2cccc(c2C3=O)NCCC1", "test system": "SAS xenograft, KSN/Slc nude mice", "conditions": "dose not given, day 0", "quantity": "tumour volume", "value": "64.1 mm3 and 74.1 mm3 and 92.3 mm3 and 65.7 mm3 and 37.7 mm3"}
{"SMILES": "COC1OC(C)C(O)C(OC2OC(C)C(O)C(OC3OC(C)C(O)C(OC4OC(C)C(O)C(OC5OC(C)C(O)C(OC6OC(C)C(O)C(OC7OC(C)C(O)C(OC8OC(C)C(O)C(OC9OC(C)C(O)C(OC%10OC(C)C(O)C(OS(=O)(=O)O)C%10OS(=O)(=O)O)C9OS(=O)(=O)O)C8OS(=O)(=O)O)C7OS(=O)(=O)O)C6OS(=O)(=O)O)C5OS(=O)(=O)O)C4OS(=O)(=O)O)C3OS(=O)(=O)O)C2OS(=O)(=O)O)C1OS(=O)(=O)O (centres unmarked)", "test system": "human plasma", "conditions": "128 µg/mL", "quantity": "prothrombin time", "value": "14.8 ± 0.2 s"}
{"SMILES": "C[n+]1ccc(/C=N/NC(=O)c2cncc(C(=O)N/N=C/c3cc[n+](C)cc3)n2)cc1", "target or system": "MYC parallel G4 DNA", "assay": "FRET melting", "conditions": "1 µM, DNA 0.2 µM", "quantity": "ΔTm", "value": "0.8 ± 0.2 °C"}
{"SMILES": "CCCC[C@@H](CSS(=O)(=O)O)NCCC", "test system": "Swiss Webster mice, Schistosoma mansoni infected", "conditions": "100 mg/kg", "scale": "baseline: vehicle control", "quantity": "liver weight decrease", "value": "21%"}
{"SMILES": "O=C(N/N=C/c1cc[n+](Cc2ccccc2)c2ccccc12)c1cccc(C(=O)N/N=C/c2cc[n+](Cc3ccccc3)c3ccccc23)n1", "target or system": "hp2 hairpin duplex DNA", "assay": "FRET melting", "conditions": "1 µM", "quantity": "ΔTm", "value": "2 ± 1.2 °C"}
{"SMILES": "COC1OC(C)C(OS(=O)(=O)O)C(OC2OC(C)C(OS(=O)(=O)O)C(OS(=O)(=O)O)C2OS(=O)(=O)O)C1OS(=O)(=O)O (centres unmarked)", "test system": "human plasma", "conditions": "128 µg/mL", "quantity": "prothrombin time", "value": "14.8 ± 0.2 s"}
{"SMILES": "COc1cc(C2NCCc3cc(O)c(O)cc32)cc(OC)c1OC (centres unmarked)", "assay": "ABTS scavenging", "conditions": "10 min, dark", "quantity": "IC50", "value": "13.6 µM"}
{"SMILES": "CC(C)C[C@H](NC(=O)[C@H](CC(=O)O)NC(=O)CNC(=O)[C@@H](N)CCCNC(=N)N)C(=O)N[C@@H](C)C(=O)N[C@H](C(=O)N[C@@H](CC(C)C)C(=O)N[C@@H](CCCNC(=N)N)C(=O)N[C@@H](CCC(N)=O)C(=O)N[C@@H](CC(C)C)C(=O)N[C@@H](C)C(=O)N[C@@H](CCC(N)=O)C(=O)N[C@@H](CCC(=O)O)C(=O)N[C@@H](CC(=O)O)C(=O)NCC(=O)N[C@H](C(=O)N[C@H](C(=O)NCC(=O)N[C@H](C(=O)N[C@@H](CCCNC(=N)N)C(=O)NCCOCCOCCOCCOCCOCCOCCOCCOCCOCCOCCOCCOCCC(=O)N[C@@H](CS)C(N)=O)C(C)C)C(C)C)C(C)C)[C@@H](C)O", "assay": "ex vivo NIR imaging", "test system": "NOD/SCID mice, xenograft, H2009 xenograft", "conditions": "intravenous, 30 µg, 24 h", "scale": "baseline: liver", "quantity": "fluorescence signal ratio", "value": "1.2 and 0.2"}
{"note": "Some of these lines once more:"}
{"SMILES": "COC1OC(C)C(OS(=O)(=O)O)C(OC2OC(C)C(OS(=O)(=O)O)C(OC3OC(C)C(OS(=O)(=O)O)C(OC4OC(C)C(OS(=O)(=O)O)C(OC5OC(C)C(OS(=O)(=O)O)C(OS(=O)(=O)O)C5O)C4O)C3O)C2O)C1O (centres unmarked)", "test system": "human plasma", "conditions": "128 µg/mL", "quantity": "prothrombin time", "value": "14.5 ± 0.3 s"}
{"SMILES": "CC(C)(C)NCC(SS(=O)(=O)O)c1ccccc1 (centres unmarked)", "test system": "Swiss Webster mice, Schistosoma mansoni-infected", "conditions": "600 mg/kg single dose on day 1 post-infection, perfusion day 44 post-infection", "quantity": "spleen weight", "value": "0.41 g"}
